# Published values pooled from the literature.
# Each line is one published result; not all experiments were run side by side. Numbers after ± are the reported error.
# NR1I2: Nuclear receptor subfamily 1 group I member 2 (NR1I2, Homo sapiens, UniProt O75469)
# UniProt O75469, sequence (whole entry, looked up): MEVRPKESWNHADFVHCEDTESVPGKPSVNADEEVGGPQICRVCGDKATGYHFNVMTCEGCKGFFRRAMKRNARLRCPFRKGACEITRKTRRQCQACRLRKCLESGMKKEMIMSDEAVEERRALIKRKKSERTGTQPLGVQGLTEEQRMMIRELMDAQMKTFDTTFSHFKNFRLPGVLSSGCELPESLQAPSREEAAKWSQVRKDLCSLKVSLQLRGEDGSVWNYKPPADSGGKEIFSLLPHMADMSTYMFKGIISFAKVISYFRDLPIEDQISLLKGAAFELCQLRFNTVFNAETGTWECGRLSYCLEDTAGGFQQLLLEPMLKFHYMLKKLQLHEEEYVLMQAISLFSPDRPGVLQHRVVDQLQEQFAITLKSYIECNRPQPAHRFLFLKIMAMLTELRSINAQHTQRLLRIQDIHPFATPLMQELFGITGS
# UniProt Q08499, sequence (whole entry, looked up): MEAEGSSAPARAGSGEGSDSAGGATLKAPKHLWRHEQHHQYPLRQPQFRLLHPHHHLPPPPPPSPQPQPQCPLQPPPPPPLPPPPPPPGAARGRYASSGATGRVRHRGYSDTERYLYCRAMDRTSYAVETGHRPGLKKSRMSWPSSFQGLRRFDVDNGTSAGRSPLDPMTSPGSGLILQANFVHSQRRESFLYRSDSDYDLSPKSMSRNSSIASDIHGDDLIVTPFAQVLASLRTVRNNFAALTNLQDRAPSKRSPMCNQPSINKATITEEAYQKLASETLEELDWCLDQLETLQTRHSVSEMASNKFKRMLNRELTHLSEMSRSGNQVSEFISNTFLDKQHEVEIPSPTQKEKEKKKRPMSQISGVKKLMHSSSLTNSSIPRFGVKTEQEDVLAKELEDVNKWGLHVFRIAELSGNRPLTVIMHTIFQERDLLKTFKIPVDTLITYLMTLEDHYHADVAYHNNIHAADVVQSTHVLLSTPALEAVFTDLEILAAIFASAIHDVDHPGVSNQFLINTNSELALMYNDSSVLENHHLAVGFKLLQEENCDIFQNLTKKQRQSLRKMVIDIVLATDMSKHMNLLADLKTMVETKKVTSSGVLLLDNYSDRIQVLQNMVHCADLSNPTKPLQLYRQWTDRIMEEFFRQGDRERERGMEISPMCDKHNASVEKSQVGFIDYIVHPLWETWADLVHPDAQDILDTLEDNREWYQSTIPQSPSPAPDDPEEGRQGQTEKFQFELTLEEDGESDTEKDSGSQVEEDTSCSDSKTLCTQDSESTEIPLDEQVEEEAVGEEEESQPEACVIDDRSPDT
# UniProt P25774, sequence (whole entry, looked up): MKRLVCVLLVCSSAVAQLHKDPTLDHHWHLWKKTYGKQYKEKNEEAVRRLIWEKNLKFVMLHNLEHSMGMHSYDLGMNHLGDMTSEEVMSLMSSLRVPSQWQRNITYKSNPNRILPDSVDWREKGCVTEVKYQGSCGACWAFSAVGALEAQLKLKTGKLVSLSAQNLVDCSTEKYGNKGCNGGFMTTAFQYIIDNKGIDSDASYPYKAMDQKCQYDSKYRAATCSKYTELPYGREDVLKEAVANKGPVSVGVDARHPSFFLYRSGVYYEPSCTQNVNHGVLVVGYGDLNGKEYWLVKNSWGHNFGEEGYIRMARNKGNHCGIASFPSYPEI
# UniProt P10632, sequence (whole entry, looked up): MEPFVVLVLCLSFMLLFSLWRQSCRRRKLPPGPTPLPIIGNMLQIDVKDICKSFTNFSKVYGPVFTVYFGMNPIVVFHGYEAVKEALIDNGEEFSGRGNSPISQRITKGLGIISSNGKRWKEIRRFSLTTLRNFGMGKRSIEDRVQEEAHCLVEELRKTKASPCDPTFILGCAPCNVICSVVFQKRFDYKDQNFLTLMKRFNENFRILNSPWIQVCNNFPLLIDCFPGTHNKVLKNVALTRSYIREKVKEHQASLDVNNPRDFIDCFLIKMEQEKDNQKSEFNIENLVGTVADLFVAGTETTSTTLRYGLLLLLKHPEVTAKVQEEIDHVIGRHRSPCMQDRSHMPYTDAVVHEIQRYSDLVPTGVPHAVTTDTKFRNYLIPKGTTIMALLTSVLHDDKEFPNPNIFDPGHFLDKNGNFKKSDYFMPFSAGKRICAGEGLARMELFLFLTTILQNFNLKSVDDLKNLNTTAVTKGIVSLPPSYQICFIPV
# UniProt P08684, sequence (whole entry, looked up): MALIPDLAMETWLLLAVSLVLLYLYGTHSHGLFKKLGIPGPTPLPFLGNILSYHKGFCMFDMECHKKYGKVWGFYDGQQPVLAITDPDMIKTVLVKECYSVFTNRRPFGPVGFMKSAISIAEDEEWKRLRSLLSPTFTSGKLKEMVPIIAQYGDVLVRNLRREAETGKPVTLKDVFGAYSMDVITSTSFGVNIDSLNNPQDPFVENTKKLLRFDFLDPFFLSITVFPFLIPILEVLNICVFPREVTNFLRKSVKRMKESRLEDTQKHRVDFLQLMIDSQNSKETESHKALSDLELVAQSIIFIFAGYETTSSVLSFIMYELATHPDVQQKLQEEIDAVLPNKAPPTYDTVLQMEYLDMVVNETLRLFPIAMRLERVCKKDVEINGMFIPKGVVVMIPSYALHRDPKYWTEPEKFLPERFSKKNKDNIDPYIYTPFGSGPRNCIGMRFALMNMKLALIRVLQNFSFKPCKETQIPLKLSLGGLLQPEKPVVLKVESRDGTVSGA
# UniProt P24463, sequence (whole entry, looked up): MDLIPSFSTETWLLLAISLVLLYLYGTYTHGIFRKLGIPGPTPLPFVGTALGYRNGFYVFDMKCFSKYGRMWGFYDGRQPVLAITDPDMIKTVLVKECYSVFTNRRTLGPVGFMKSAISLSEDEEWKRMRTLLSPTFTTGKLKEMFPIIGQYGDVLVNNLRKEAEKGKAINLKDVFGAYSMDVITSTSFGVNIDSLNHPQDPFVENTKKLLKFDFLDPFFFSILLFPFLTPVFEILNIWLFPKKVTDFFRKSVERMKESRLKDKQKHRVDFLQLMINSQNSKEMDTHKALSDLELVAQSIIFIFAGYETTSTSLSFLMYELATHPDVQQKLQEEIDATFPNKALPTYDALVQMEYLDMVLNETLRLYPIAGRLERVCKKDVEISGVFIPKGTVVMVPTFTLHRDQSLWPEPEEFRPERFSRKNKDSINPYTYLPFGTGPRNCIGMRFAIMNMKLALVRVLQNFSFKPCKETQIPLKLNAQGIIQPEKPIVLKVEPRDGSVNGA
# UniProt O55242, sequence (whole entry, looked up): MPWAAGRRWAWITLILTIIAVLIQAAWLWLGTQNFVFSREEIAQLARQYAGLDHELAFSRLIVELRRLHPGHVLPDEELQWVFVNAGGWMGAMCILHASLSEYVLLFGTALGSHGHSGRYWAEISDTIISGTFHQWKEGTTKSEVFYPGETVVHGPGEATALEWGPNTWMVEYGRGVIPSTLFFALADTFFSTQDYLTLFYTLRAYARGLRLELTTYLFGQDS
target,assay,test system,setting,how to read,endpoint,result,Structure (SMILES)
Fe2+ complex,potentiometric titration,,25 °C,,log stability constant,18.2,O=c1c(/C=N/NC(=S)N/N=C/c2cc(Cl)ccc2O)coc2ccccc12
"Amyloid-beta precursor protein, fibrillar amyloid-beta (APP, Homo sapiens, UniProt P05067)",dynamic light scattering,,"20 µM, compound alone, whole sample",,hydrodynamic diameter,~66 nm,CCCCCCCCCCCCCCCC(=O)OCC(CSC[C@H](N)C(=O)N[C@@H](CO)C(=O)N[C@@H](CCCCN)C(=O)N[C@@H](CCCCN)C(=O)N[C@@H](CCCCN)C(=O)N[C@@H](CCCCN)C(=O)NCCCCCC(=O)N[C@@H](CCCCN)C(=O)N[C@@H](CC(C)C)C(=O)N[C@H](C(=O)N[C@@H](Cc1ccccc1)C(=O)N[C@@H](Cc1ccccc1)C(=O)N[C@@H](Cc1ccc2ccccc2c1)C(=O)O)C(C)C)OC(=O)CCCCCCCCCCCCCCC (stereo partly shown)
"PDE4D (Homo sapiens, UniProt Q08499)",PET,,"concentration not given, 30 to 120 min, baseline scan",,brain radioactivity,~2 SUV,[11CH3]Oc1ccc(Cc2cn[nH]c2)nc1-c1cccc([N+](=O)[O-])c1
"Cytochrome P450 3A4 (CYP3A4, Homo sapiens, UniProt P08684)","substrate, LC-MS, item: hydroxylated metabolite M1",baculosomes,,,Km,0.6 ± 0.1 µM,COc1ccc2cc(NC(=O)c3cc(-c4ccncc4)nc4ccccc34)ccc2c1
"Sigmar1 (Mus musculus, UniProt O55242)",radiotracer,"mouse BALB/c male, whole brain","intravenous, early",,maximum uptake,6.48 %ID/cc,[11CH3]Oc1ccc(-n2nc(OCCCN3CCCCC3)ccc2=O)cc1
"Cytochrome P450 2C8 (CYP2C8, Homo sapiens, UniProt P10632)","enzyme activity, inhibitor","human, liver microsomes",0.33 µM,,activity vs control,105%,C=CC(=O)Nc1cc(Nc2nccc(-c3cn(C)c4ccccc34)n2)c(OCC(F)(F)F)nc1N(C)CCN(C)C
"Cytochrome P450 3A12 (Canis lupus familiaris, UniProt P24463)",item: compound formation,dog female,,,contribution to clearance,100%,NS(=O)(=O)Nc1ncnc(OCCOc2ncc(Br)cn2)c1-c1ccc(Br)cc1
"Cathepsin S (CTSS, Homo sapiens, UniProt P25774)",substrate,isolated enzyme in acetate buffer,"1 mg/mL, pH 5.5, 0.15 U enzyme per µmol compound",,half-life,20 h,CC(=O)N[C@H](C(=O)N[C@H](C(=O)N[C@@H](CCCNC(=N)N)C(=O)N1Cc2ccccc2C[C@H]1C(=O)N[C@@H](Cc1ccccc1)C(N)=O)C1CCCCC1)C(C)C
NR1I2,"reporter gene, agonist",,3.2 µM,relative to: vehicle,fold activation,1.18 fold,CCC(=O)N(C)c1ccc(Cl)c(Cl)c1
CXCR4,,"NOD/SCID mouse, U87 and U87-stb-CXCR4 xenografts, pancreas","iv, 30 min, ex vivo",,tissue uptake,1.61 ± 0.08 %ID/g,[64Cu+2].c1cnc(CNCc2ccc(CN3CCCN4CCNCCCN(CC4)CC3)cc2)nc1
Fe2+ complex,potentiometric titration,,25 °C,,log stability constant,17,NC(=S)N/N=C/c1cc(Cl)ccc1O
CXCR4,,"NOD/SCID mouse, U87 and U87-stb-CXCR4 xenografts, liver","iv, 30 min, ex vivo",,tissue uptake,79.5 ± 20.9 %ID/g,[64Cu+2].c1ccc(CNCc2ccc(CN3CCCN4CCNCCCN(CC4)CC3)cc2)nc1
copper(2+) ion,"Cu2+ binding, from titration constants",aqueous solution,"50 µM, pH 6.6, Cu:ligand 1:1, equal totals",,pCu,11.5,COc1cc(-c2nc3ccccc3s2)cc(CN2Cc3cccc(n3)CN(C)Cc3cccc(n3)C2)c1O
NR1I2,PXR activation,,,,IC50,> 10 µM,COc1ccc2c(c1)C=C(C(=O)N1C[C@@H](C)O[C@@H](C)C1)Cn1c-2c(C2CCCCC2)c2ccc(C(=O)NS(=O)(=O)N(C)C)cc21
MRP1 (ABCC1),substrate,,,,efflux ratio,0.85,CC(=O)Nc1ncc(CN2CC[C@H](Oc3cccc(F)n3)C[C@@H]2C)s1
copper(2+) ion,"Cu2+ binding, from titration constants",aqueous solution,"50 µM, pH 6.6, Cu:ligand 1:1, equal totals",,pCu,12.8,COc1cc(-c2nc3ccccc3s2)cc(CN2CCN(C)CCN(C)CC2)c1O

# A few entries again:
target,assay,test system,setting,how to read,endpoint,result,Structure (SMILES)
"Cytochrome P450 3A4 (CYP3A4, Homo sapiens, UniProt P08684)","substrate, LC-MS, item: hydroxylated metabolite M1",baculosomes,,,Km,0.6 ± 0.1 µM,COc1ccc2cc(NC(=O)c3cc(-c4ccncc4)nc4ccccc34)ccc2c1
"Cathepsin S (CTSS, Homo sapiens, UniProt P25774)",substrate,isolated enzyme in acetate buffer,"1 mg/mL, pH 5.5, 0.15 U enzyme per µmol compound",,half-life,20 h,CC(=O)N[C@H](C(=O)N[C@H](C(=O)N[C@@H](CCCNC(=N)N)C(=O)N1Cc2ccccc2C[C@H]1C(=O)N[C@@H](Cc1ccccc1)C(N)=O)C1CCCCC1)C(C)C
